# Measured values pooled from the literature.
# Every numbered part comes from another study and shows a few of its results, in no order.
# Chain of UniProt P08172 (whole entry, looked up): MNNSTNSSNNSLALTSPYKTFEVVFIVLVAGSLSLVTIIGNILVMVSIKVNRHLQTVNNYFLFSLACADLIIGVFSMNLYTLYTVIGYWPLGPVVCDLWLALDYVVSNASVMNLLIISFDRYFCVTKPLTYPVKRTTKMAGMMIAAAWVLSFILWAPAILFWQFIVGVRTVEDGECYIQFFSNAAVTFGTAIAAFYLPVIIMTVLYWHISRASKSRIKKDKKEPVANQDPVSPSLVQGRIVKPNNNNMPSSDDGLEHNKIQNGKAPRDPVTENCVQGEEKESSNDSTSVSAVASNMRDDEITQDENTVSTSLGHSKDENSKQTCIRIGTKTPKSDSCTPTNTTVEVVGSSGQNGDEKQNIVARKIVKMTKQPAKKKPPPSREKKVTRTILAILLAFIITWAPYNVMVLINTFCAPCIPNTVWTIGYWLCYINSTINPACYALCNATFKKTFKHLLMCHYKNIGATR

# Set 1
# Target: Interferon regulatory factor 1, DNA-binding domain (IRF1, Homo sapiens, UniProt P10914, residues 1-114)
# Technique: protein-binding microarray
# Molecule type: hairpin DNA
# Matrix: in vitro
# Concentration: not given
# Notes: whole hairpin DNA, median over replicate spots
# Baseline: not given
# Direction: higher = stronger binding
# Target sequence (chain): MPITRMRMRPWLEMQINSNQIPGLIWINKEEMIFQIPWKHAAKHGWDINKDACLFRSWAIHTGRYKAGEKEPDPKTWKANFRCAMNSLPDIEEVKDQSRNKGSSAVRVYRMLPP
Oligonucleotide,median fluorescence [a.u.]
GAGGCCCGAAAGCGAAACGCCTCCTGGCGTTTCGCTTTCGGGCCTCACAC (5mC at 7 13 33 39),712
GAGGCCCGACGGCGAAACGCCTCCTGGCGTTTCGCCGTCGGGCCTCACAC (5mC at 10),496
GAGGCCCGAAAGCGAAACGCCTCCTGGCGTTTCGCTTTCGGGCCTCACAC (5mC at 7 13),990
GAGGCCCGGAAGCGAAACGCCTCCTGGCGTTTCGCTTCCGGGCCTCACAC,654
GAGGCCCGAAAGTGAAGCGCCTCCTGGCGCTTCACTTTCGGGCCTCACAC (5mC at 30),570
GAGGCCCTAAAGCGAAACGCCTCCTGGCGTTTCGCTTTAGGGCCTCACAC,860
GAGGCCCGAACGTGAAACGCCTCCTGGCGTTTCACGTTCGGGCCTCACAC (5mC at 35),498
GAGGCCCGAAAGCGAAACGCCTCCTGGCGTTTCGCTTTCGGGCCTCACAC (5mC at 18),1870

# Set 2
# Target: Prothrombin, mature alpha-thrombin (F2, Homo sapiens, UniProt P00734)
# Technique: aptamer microarray, sandwich
# Molecule type: DNA with 2'F-ANA
# Matrix: in vitro
# Concentration: 200 nM
# Notes: whole 15-mer aptamer, many near background
# Together with: Cy3 exosite-II aptamer, 400 nM
# Direction: higher = stronger binding
# Oligonucleotide: GGTTGGTGTGGTTGG
Modification,mean fluorescence intensity [a.u.]
2'F-ANA at 2 3 4 5 9 10 13 14 15,56.2
2'F-ANA at 2 4 5 8 9 12 13 14 15,45.6
2'F-ANA at 1 4 5 7 10 12 13,104
2'F-ANA at 1 3 7 8 10,100
2'F-ANA at 2 7 10 11 12 15,174
2'F-ANA at 3 5 7 8 9 10 11 12 13,66.9
2'F-ANA at 1 4 6 7 8 9 11 14,60.4
2'F-ANA at 2 4 6 10 11 12 14,68.7

# Set 3
# Target: TAR DNA-binding protein 43, full length, His tag (TARDBP, Homo sapiens, UniProt Q13148, residues 1-414)
# Technique: RNA Bind-n-Seq
# Molecule type: RNA
# Matrix: in vitro
# Concentration: 20 nM
# Notes: 6-mer, flanks averaged, single round
# Together with: 150 mM LiCl
# Baseline: input library
# Direction: higher = stronger binding
Oligonucleotide,6-mer enrichment (R)
AUCAGC,0.819
AAAUUC,0.897
AUUAGA,0.896
AGGCAG,1
GCGCCU,0.981
ACUACG,0.829
ACUCUU,0.909
ACUCAC,0.843

# Single results of other studies
Compound,target,assay,setting,endpoint,result
Cc1cc(-n2nc(Cc3cc(F)cc(C(F)(F)F)c3)nc2C)ccc1C(N)=O,"Muscarinic acetylcholine receptor M2 (CHRM2, Homo sapiens, UniProt P08172)","binding, radioligand binding",10 µM,inhibition,5.69%

# A few entries again (set 1):
Oligonucleotide,median fluorescence [a.u.]
GAGGCCCGACGGCGAAACGCCTCCTGGCGTTTCGCCGTCGGGCCTCACAC (5mC at 10),496
GAGGCCCGAAAGCGAAACGCCTCCTGGCGTTTCGCTTTCGGGCCTCACAC (5mC at 7 13),990
GAGGCCCGGAAGCGAAACGCCTCCTGGCGTTTCGCTTCCGGGCCTCACAC,654
